{"data": "Results from different studies", "note": "Each line is one published result; not all experiments were run side by side."}
{"SMILES": "O=C(O)Cc1ccccc1Nc1c(Cl)cccc1Cl", "sample": "human liver microsomes", "tested at": "1 µM", "pH": "pH 7.4", "measurement": "scaled intrinsic clearance", "value": "226 mL/min/kg"}
{"SMILES": "CCOc1c(O)cc(Br)c2c1CN1CCc3cc(OCC(F)F)c(O)cc3[C@@H]1C2", "sample": "rat liver S9", "tested at": "2 µM", "pH": "pH 7.4", "measurement": "scaled intrinsic clearance", "value": "902 mL/min/kg"}
{"SMILES": "O=c1ccc2ccc(O)cc2o1", "sample": "cryopreserved SD rat hepatocytes", "tested at": "1 µM", "measurement": "scaled intrinsic clearance", "value": "284 mL/min/kg"}
{"SMILES": "N#Cc1ccc(Nc2nc(N)cc(Oc3c(F)cc(-c4ccc(C#N)cc4)cc3F)n2)cc1", "sample": "human liver microsomes", "tested at": "1 µM", "measurement": "scaled intrinsic clearance", "value": "1.08 mL/min/kg"}
{"SMILES": "CN(C)c1ccc2c(c1)c(=O)n(-c1ccc(C[C@H](NC(=O)c3c(Cl)cccc3Cl)C(=O)O)cc1)c(=O)n2C", "sample": "cynomolgus sandwich-cultured hepatocytes", "measurement": "scaled biliary intrinsic clearance", "value": "18.1 mL/min/kg"}
{"SMILES": "O=C(O)Cc1ccccc1Nc1c(Cl)cccc1Cl", "sample": "CD-1 mouse liver microsomes", "tested at": "1 µM", "pH": "pH 7.4", "measurement": "scaled CLint", "value": "212 mL/min/kg"}
{"SMILES": "CCOc1ccc2ccc(=O)oc2c1", "sample": "hamster hepatocytes", "measurement": "scaled hepatic intrinsic clearance", "value": "1440 mL/min/kg"}
{"SMILES": "NC(=O)c1cn(-c2ccnc(N)n2)c2cc(C#CC3(O)CCCCC3)ccc12", "sample": "CD-1 mouse liver microsomes", "tested at": "1 µM", "pH": "pH 7.4", "measurement": "scaled CLint", "value": "106 mL/min/kg"}
{"SMILES": "Cc1nc2ccc(OCc3ccc(C(F)(F)F)cc3)cc2[nH]1", "sample": "human liver S9", "tested at": "1 µM", "pH": "pH 7.4", "measurement": "scaled intrinsic clearance", "value": "554 mL/min"}
{"note": "For quick reference, copied from above:"}
{"SMILES": "Cc1nc2ccc(OCc3ccc(C(F)(F)F)cc3)cc2[nH]1", "sample": "human liver S9", "tested at": "1 µM", "pH": "pH 7.4", "measurement": "scaled intrinsic clearance", "value": "554 mL/min"}
